Published values collected from several papers.
Numbered parts are unrelated; each lists some results of a single study.

Block 1
Target: RNA binding protein fox-1 homolog 2, RRM domain, GST-SBP tag (RBFOX2, Homo sapiens, UniProt O43251-10, residues 100-194)
Technique: RNA Bind-n-Seq
Form: RNA
Medium: in vitro
Concentration: 365 nM
Notes: natural RNA segment, single round, ends assumed
Relative to: no-protein control
Reading: higher = stronger binding
Measurement: RBNS enrichment (R)
Construct (chain): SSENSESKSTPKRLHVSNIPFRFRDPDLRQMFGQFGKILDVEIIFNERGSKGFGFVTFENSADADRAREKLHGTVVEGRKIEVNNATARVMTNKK
Strand = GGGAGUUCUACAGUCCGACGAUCUGCUAGCAGCAGUCUUCUUCACAGUGCCUUGGGAAAAGACAUUUCAAGAGGAAACUUGAUAAUUUUAAACUCUUUUCCCCCUUUACCGUCAUCUAUCCUCUAUCUGUAUCUGGAAUUCUCGGGUGCCAA; result = 0.517
Strand = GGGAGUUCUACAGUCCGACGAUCUAAAAAGUCAUUUUAGAUGCCACCCAUUGACUUUGCCACAUAGCUGAACUGUGUUUACUGGAAAAAUUCAGAGGCCUAAAGUUUAAAAUAAAAUUUACUUCUGAUGUUUUUGGAAUUCUCGGGUGCCAA; result = 0.457
Strand = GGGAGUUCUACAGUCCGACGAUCCCAGCAUUAGGUAUUACUACCUGCCUCUGUCACUAAGAAUUUCUUCUCUUCCAUCUUCUGUGAGUAGGGUUUGGCUUUGUAUCCCUCCCUUGAUUGUUUCCAUACCACUCUGGAAUUCUCGGGUGCCAA; result = 1.41
Strand = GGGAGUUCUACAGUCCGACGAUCAUAGAAAAUGACUUUAGAGAUGAGUGGUUUUGUGUAUGUGUCUGAUGAUAUUCAGUCUGAUGUUCCGCAAUUUUAAAAGUUAUAAUAAAAUACCAUUUUUUUAAUCUGGAUGGAAUUCUCGGGUGCCAA; result = 5.44
Strand = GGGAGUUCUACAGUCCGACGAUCCCUGGUUGAGAGCUAAGACAACCACCUACCAGUGCCCAUGUCCCUUCCAGCUCACCUUGAGCAGCCUCAGAUCAUCUCUGUCACUCUGGAAGGGACACCCCAGCCAGGGAUGGAAUUCUCGGGUGCCAA; result = 0.242
Strand = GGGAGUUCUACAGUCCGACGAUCAUAGCCAACACUAUGACAUAAAAACUUUGUGUUCAAAAUGUACAAUUCACUUUAUACAUUAUUAAUAGUAGAUAAAUUUGUGUAAAAUGUAUCGCUGCUGUCCAGCAUGCUGGAAUUCUCGGGUGCCAA; result = 3.76
Strand = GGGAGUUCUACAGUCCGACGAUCAGAUGGUAUCAUCUCUAAACCUAAGAAUUUAUAGAAGCACUUCCUUACAGAGCUAAGAAUCCAUAGCCAUGGCUCUGUAAGCUAAACCUGAAGAGUGAUAUUUGUACAAUUGGAAUUCUCGGGUGCCAA; result = 0.278
Strand = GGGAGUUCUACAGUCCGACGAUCAGCCACCGUCCUCCGUGACACACGGCCCCCUUCCUCCUGUCCCCACACUCCCAGGAGAAACUCCCGGUGUGUUUCUGACCCUUUCAGCCCCAUUAAAGCUCCUGAGCUCUUGGAAUUCUCGGGUGCCAA; result = 0.514
Strand = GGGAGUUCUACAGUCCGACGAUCACUUGUUGCUGGUUUAAAGGUUAUUGUGGGAAACUGAACUAAAGGAGUUAGCAUCUUUAUUUUUGUAUCAAAGAUAAAGGUUAUUUUGAAAAUUAUUAGGGUUUUUACAUUGGAAUUCUCGGGUGCCAA; result = 0.846
Strand = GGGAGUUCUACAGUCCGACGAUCUUUUUGAAUGCUUCCAAGACUUAUCAUGAAAACUGUCAAUGGAUAAUCAUUUCCUGCUGACUUUGCACGCCAAGGAAUGCUACUAGGGAUUGUUUCCGUUUUUGUUUGUUUGGAAUUCUCGGGUGCCAA; result = 2.14
Strand = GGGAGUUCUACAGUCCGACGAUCAAUUCUUAAAAGUUGAGACCAAUUGUAACCAGUUUAACUCAUUUUAGAUGACCUUUUUUUCUUAUAAUAUUUGCAAGUGACAAGUUUGAAAACAAAGCAAGAUCAGUGCAUGGAAUUCUCGGGUGCCAA; result = 2.92
Strand = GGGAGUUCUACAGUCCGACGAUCUGGUGGACCGUGGAGUGCAGAGGUUUAGGGAGAUCCUGCCAUUGCUCACACAAGAAGACAGAGCCGGAAACAUGCAGGGUCAGACCAGUGUUCCUACAGUGAGCCCCAGAUGGAAUUCUCGGGUGCCAA; result = 0.467

Block 2
Target: Interferon regulatory factor 5, full length, phosphomimetic (IRF5, Homo sapiens, UniProt Q13568-2, residues 1-514, K96S/S451D/S453D/S456D/S462D)
Technique: protein-binding microarray
Form: double-stranded DNA, one strand shown
Medium: in vitro
Concentration: 250 nM
Notes: 60-bp whole probe
With: salmon DNA 0.4 mg/ml
Relative to: random background probes
Reading: higher = stronger binding
Measurement: log fluorescence
Constant ends, left off below: GCCTAGCAC … GTCTTGATTCGCTTGACGCTGCTG
Strand = GACGATATCGGGTATCGAGTCGTGCTA; result = 2.82 z-score
Strand = TCACCACTCCAGTTCTGACTGTGCTAG; result = 0.0309 z-score
Strand = TTAGGTATCCTTTACCTTTAGTGCTAG; result = 0.113 z-score
Strand = GCACTTTGGGAGGCCGAGGCGTGCTAG; result = -0.403 z-score
Strand = TTTGGACTGGGACTGGGTTAGTGCTAG; result = -0.599 z-score
Strand = TTCCAATTCTCTTTTCACTTGTGCTAG; result = 2.14 z-score
Strand = TACGGTATCGGGTTTCGGGACGTGCTA; result = 4.41 z-score
Strand = GACGGTATCGGGTTTCGGGAAGTGCTA; result = 5.28 z-score
Strand = GACGAGTTCAGTCTCGAGACGTGCTAG; result = -0.0656 z-score
Strand = TTAGGTTCCGGTTTCGGGTAGTGCTAG; result = 7.33 z-score
Strand = CATTCTCTGTTTATGTCTGGGTGCTAG; result = 1.27 z-score
Strand = TTAGATTTCGGTTTCGGTTAGTGCTAG; result = 11.4 z-score
Strand = TTAGGTATTCTTATCCTTTAGTGCTAG; result = 0.142 z-score
Strand = TTAGATCTCAGACTGGATTGGTGCTAG; result = -0.251 z-score
Strand = TTAGGACTGGGTATCGTTTAGTGCTAG; result = 0.982 z-score
Strand = GACGGTCTCCTTTTCCTGAAGTGCTAG; result = 0.146 z-score
Strand = CCTGGCTTCATGTTGCTCTCCGTGCTA; result = -0.254 z-score
Strand = GACGCTCTCCTACTGCTGACGTGCTAG; result = -0.295 z-score
Strand = TCATACTTCTGTTTTTGACTGTGCTAG; result = 0.821 z-score

Block 3
Target: PABPC1L2, full length, GST fusion (mouse, UniProt A0ABA7IW68)
Technique: RNAcompete
Form: RNA
Medium: in vitro
Concentration: 20 nM
Notes: 7-mer, probes averaged, single round
Relative to: mean of 7-mers
Reading: higher = stronger binding
Measurement: 7-mer Z-score
Residues (chain): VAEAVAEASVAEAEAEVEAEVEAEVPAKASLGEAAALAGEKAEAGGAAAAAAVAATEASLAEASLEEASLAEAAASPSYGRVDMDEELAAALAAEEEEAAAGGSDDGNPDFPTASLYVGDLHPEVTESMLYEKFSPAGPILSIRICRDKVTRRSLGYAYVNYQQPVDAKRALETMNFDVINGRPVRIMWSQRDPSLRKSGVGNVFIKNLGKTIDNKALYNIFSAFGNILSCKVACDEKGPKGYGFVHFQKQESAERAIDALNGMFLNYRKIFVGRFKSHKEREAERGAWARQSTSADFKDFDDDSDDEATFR
Strand = CCCGGGA; result = -0.199
Strand = GCCCGCC; result = -0.496
Strand = UAGCAGG; result = -0.079
Strand = CCGAUGC; result = -0.175
Strand = CCAGGAG; result = -0.0518
Strand = UGGGUGA; result = 0.00798
Strand = GAAGCAU; result = -0.0989
Strand = CCGCCGA; result = -0.258
Strand = CUCCCAC; result = -0.335
Strand = GCUAGGU; result = 0.0533
Strand = ACCCUCA; result = -0.2
Strand = CGCCUGU; result = -0.44
Strand = UAUUACA; result = -0.155
Strand = UAUACCA; result = -0.157
Strand = UUUGUGU; result = -0.556
Strand = CAACAGC; result = -0.204
Strand = ACUCGCC; result = -0.278
Strand = GGGAAGA; result = 0.26
Strand = CAAAACC; result = 0.729
Strand = GUCCUCG; result = -0.38
Strand = UGCAUUG; result = -0.253
Strand = GGGCCUA; result = 0.285
Strand = CUGGGCA; result = 0.254
Strand = ACUACGU; result = -0.179
Strand = CGAGUCG; result = -0.36

Block 4
Target: Prothrombin, mature alpha-thrombin (F2, Homo sapiens, UniProt P00734)
Technique: aptamer microarray, sandwich
Form: DNA with 2'F-ANA
Medium: in vitro
Concentration: 200 nM
Notes: whole 15-mer aptamer, many near background
With: Cy3 exosite-II aptamer, 400 nM
Reading: higher = stronger binding
Measurement: mean fluorescence intensity
Strand: GGTTGGTGTGGTTGG
Modification = 2'F-ANA at 1 2 3 5 6 9 10 11 12; result = 57.9 a.u.
Modification = 2'F-ANA at 2 6 9 10 11 14 15; result = 79.1 a.u.
Modification = 2'F-ANA at 2 5 7 8 9 12 15; result = 164 a.u.
Modification = 2'F-ANA at 2 3 4 5 7 9 10 11 13 14 15; result = 62.5 a.u.
Modification = 2'F-ANA at 1 2 3 5 6 9 11 14 15; result = 52.8 a.u.
Modification = 2'F-ANA at 1 4 5 6 9 10 12 13 15; result = 62.3 a.u.
Modification = 2'F-ANA at 1 2 4 5 7 10 12 15; result = 47 a.u.
Modification = 2'F-ANA at 3 4 5 6 8 9 10 11 13 14; result = 49.3 a.u.
Modification = 2'F-ANA at 2 5 6 8 9 11 12 15; result = 115 a.u.
Modification = 2'F-ANA at 1 2 3 4 8 10 11; result = 55.8 a.u.
Modification = 2'F-ANA at 2 4 9 10 12 14; result = 76.3 a.u.
Modification = 2'F-ANA at 1 2 3 4 5 7 9 11 12 13; result = 68.5 a.u.
Modification = 2'F-ANA at 2 4 5 6 7 9 11 15; result = 61 a.u.
Modification = 2'F-ANA at 3 6 9 11 12 13 14; result = 558 a.u.
Modification = 2'F-ANA at 3 4 6 7 9 11 14; result = 203 a.u.
Modification = 2'F-ANA at 2 3 5 6 9 10 12 15; result = 119 a.u.
Modification = 2'F-ANA at 2 5 12 13; result = 132 a.u.
Modification = 2'F-ANA at 2 3 5 9 10 11 12 13; result = 56.2 a.u.
Modification = 2'F-ANA at 3 4 9 12 13 14; result = 305 a.u.
Modification = 2'F-ANA at 1 5 10; result = 81.4 a.u.
Modification = 2'F-ANA at 1 4 5 7 8 9 10 11 14 15; result = 48.6 a.u.
Modification = 2'F-ANA at 2 4 6 10 15; result = 80.3 a.u.
Modification = 2'F-ANA at 6 7 8 10 11 13 14; result = 98.7 a.u.
Modification = 2'F-ANA at 1 3 4 5 6 7 8 10 12; result = 53.2 a.u.
Modification = 2'F-ANA at 1 3 4 6 8 9 12; result = 422 a.u.

Repeated from above (block 4):
Modification = 2'F-ANA at 1 2 4 5 7 10 12 15; result = 47 a.u.
Modification = 2'F-ANA at 3 4 5 6 8 9 10 11 13 14; result = 49.3 a.u.
Modification = 2'F-ANA at 2 5 6 8 9 11 12 15; result = 115 a.u.
Modification = 2'F-ANA at 1 2 3 4 8 10 11; result = 55.8 a.u.
Modification = 2'F-ANA at 2 4 9 10 12 14; result = 76.3 a.u.
Modification = 2'F-ANA at 1 2 3 4 5 7 9 11 12 13; result = 68.5 a.u.
Modification = 2'F-ANA at 2 4 5 6 7 9 11 15; result = 61 a.u.
Modification = 2'F-ANA at 3 6 9 11 12 13 14; result = 558 a.u.
Modification = 2'F-ANA at 3 4 6 7 9 11 14; result = 203 a.u.
Modification = 2'F-ANA at 2 3 5 6 9 10 12 15; result = 119 a.u.
Modification = 2'F-ANA at 2 5 12 13; result = 132 a.u.
Modification = 2'F-ANA at 2 3 5 9 10 11 12 13; result = 56.2 a.u.
Modification = 2'F-ANA at 3 4 9 12 13 14; result = 305 a.u.
